Results pooled from the literature.
Lines come from different studies, so protocols differ. ± marks the error that the study gave.

The EC50 of `Cn1c(-c2ccccc2)c(C2CCCCC2)c2ccc(C(=O)NC3(C(=O)Nc4ccc(/C=C/C(=O)O)cc4)CCCC3)cc21` is reported as 0.1 µM (hepatitis C virus; replicon replication; Huh-7, genotype 1b Con1).
For `CC1(CCCCCCCCCCCCCCOCCCOP(=O)(O)CO[C@H](CO)Cn2ccc(N)nc2=O)COC1`, the EC50 was 0.29 ± 0.17 µM (human alphaherpesvirus 2; cytopathic effect; HFF, G).
The EC50 of `CCOC(=O)[C@@H](C)NP(=O)(CO[C@H](CF)Cn1cnc(N)nc1=O)N[C@H](C)C(=O)OCC` is reported as > 100 µM (varicella-zoster virus; plaque formation; HEL, Oka, TK+).
For `COc1ccc2c(c1)C=C(C(=O)N1C[C@@H](C)O[C@@H](C)C1)Cn1c-2c(C2CCCCC2)c2ccc(C(=O)NS(=O)(=O)N(C)C)cc21`, the EC50 was 0.04 µM (hepatitis C virus; replicon replication; Huh-7, genotype 1b Con1).
For `COc1ccc(-c2nc(-c3ccccc3OC)[nH]c2-c2ccc(OC)cc2)cc1`, the EC50 was > 100 µM (Schistosoma mansoni; worm killing; mature worms, mixed sexes; 96 h).
For `Nc1ccn(C[C@@H](CO)OCP(=O)(O)OCCCS(=O)(=O)CCCCCCCCCCC2CCC2)c(=O)n1`, the EC50 was 0.29 ± 0.13 µM (human alphaherpesvirus 2; cytopathic effect; HFF, G).
`C=C(C)[C@@H]1CC[C@]2(C(N)=O)CC[C@]3(C)[C@H](CC[C@@H]4[C@@]5(C)CCCNC(C)(C)[C@@H]5CC[C@]43C)[C@@H]12` gave an EC50 of > 1.2 µM (human papillomavirus 11; viral replication, inhibitor, luciferase; C-33-A).
For `COC(=O)CCC(NC(=O)C1OC(OC2C(OC3CCC4(C)C(CCC5(C)C4C(=O)C=C4C6CC(C)(C(=O)NC(CCC(=O)OC)C(=O)OC)CCC6(C)CCC45C)C3(C)C)OC(C(=O)NC(CCC(=O)OC)C(=O)OC)C(O)C2O)C(O)C(O)C1O)C(=O)OC` (stereo not drawn), the EC50 was > 1000 µM (Epstein-Barr virus; viral genome copies, quantitative PCR; superinfected Raji cells; 24 h).
`Nc1nc2c(ncn2COCCOC(=O)CCC(=O)OC[C@H](N)C(=O)O)c(=O)[nH]1` gave an EC50 of 245 µM (human alphaherpesvirus 2; viral cytopathic effect, CPE inhibition).
`CC1(C)CC[C@]2(CO)CC[C@]3(C)C(=CC[C@@H]4[C@@]5(C)CCCNC(C)(C)[C@@H]5CC[C@]43C)[C@@H]2C1` gave an EC50 of > 0.24 µM (human papillomavirus 11; viral replication, inhibitor, luciferase; C-33-A).
`CC1(C(=O)O)CCC2(C)CCC3(C)C(=CC(=O)C4C5(C)CCC(OC6OC(C(=O)NC(CCCCNC(=O)OCc7ccccc7)C(=O)O)C(O)C(O)C6OC6OC(C(=O)NC(CCCCNC(=O)OCc7ccccc7)C(=O)O)C(O)C(O)C6O)C(C)(C)C5CCC43C)C2C1` (stereo not drawn) gave an EC50 of > 1000 µM (Epstein-Barr virus; viral genome copies, quantitative PCR; superinfected Raji cells; 24 h).
`C=C(C)[C@@H]1CC[C@]2(CO)CC[C@]3(C)[C@H](CC[C@@H]4[C@@]5(C)CCCNC(C)(C)[C@@H]5CC[C@]43C)[C@@H]12` has an EC50 of > 6 µM (human papillomavirus 11; viral replication, inhibitor, luciferase; C-33-A).
The EC50 of `Nc1ccn(C[C@@H](CO)OCP(=O)(O)OCCCS(=O)(=O)CCCCCCCCCCCCCC2CCC2)c(=O)n1` is reported as 0.007 ± 0.01 µM (human alphaherpesvirus 3; cytopathic effect; HFF, Ellen).
The EC50 of `COC(=O)C1(C)CCC2(C)CCC3(C)C(=CC(=O)C4C5(C)CCC(OC6OC(C(=O)NN)C(O)C(O)C6OC6OC(C(=O)NN)C(O)C(O)C6O)C(C)(C)C5CCC43C)C2C1` (stereo not drawn) is reported as > 1000 µM (Epstein-Barr virus; viral genome copies, quantitative PCR; superinfected Raji cells; 24 h).
`Nc1nc2c(ncn2COCCOC(=O)[C@@H](N)CO)c(=O)[nH]1` gave an EC50 of 38.4 µM (human alphaherpesvirus 2; viral cytopathic effect, CPE inhibition).
With `C=C(C)[C@@H]1CC[C@]2(C(=O)n3ccnc3)CC[C@]3(C)[C@H](CC[C@@H]4[C@@]5(C)CCCNC(C)(C)[C@@H]5CC[C@]43C)[C@@H]12` the EC50 was 1.07 µM (human papillomavirus 11; viral replication, inhibitor, luciferase; C-33-A).
With `CC(C)CC(NC(=O)C1OC(OC2C(OC3CCC4(C)C(CCC5(C)C4C(=O)C=C4C6CC(C)(C(=O)NC(CC(C)C)C(=O)O)CCC6(C)CCC45C)C3(C)C)OC(C(=O)NC(CC(C)C)C(=O)O)C(O)C2O)C(O)C(O)C1O)C(=O)O` (stereo not drawn) the EC50 was ~25 µM (Epstein-Barr virus; viral genome copies, quantitative PCR; superinfected Raji cells; 24 h).
`CC1(CCCCCCCCCCCCOCCCOP(=O)(O)CO[C@H](CO)Cn2ccc(N)nc2=O)COC1` has an EC50 of 0.29 ± 0.13 µM (human alphaherpesvirus 2; cytopathic effect; HFF, G).
For `COC(=O)C(CCC(=O)O)NC(=O)C1OC(OC2C(OC3CCC4(C)C(CCC5(C)C4C(=O)C=C4C6CC(C)(C(=O)O)CCC6(C)CCC45C)C3(C)C)OC(C(=O)NC(CCC(=O)O)C(=O)OC)C(O)C2O)C(O)C(O)C1O` (stereo not drawn), the EC50 was 135 ± 35 µM (Epstein-Barr virus; viral genome copies, quantitative PCR; superinfected Raji cells; 24 h).
`Nc1ccn(C[C@@H](CO)OCP(=O)(O)OCCCS(=O)(=O)CCCCCCCCCCCCC2CCC2)c(=O)n1` gave an EC50 of 0.01 ± 0.01 µM (human alphaherpesvirus 3; cytopathic effect; HFF, Ellen).
`CNC(=O)c1c(F)cccc1Nc1nc(Nc2cc3c(cc2OC)CCN3C(=O)CN(C)C)nc2[nH]ccc12` gave an EC50 of > 15.8 µM (Leishmania major; parasite growth; intracellular, amastigote).
`O=C(O)/C=C/c1ccc(NC(=O)C2(NC(=O)c3ccc4c(C5CCCCC5)c5n(c4c3)CC(=O)Nc3ccccc3-5)CCCC2)cc1` gave an EC50 of 0.008 µM (hepatitis C virus; replicon replication; Huh-7, genotype 1b Con1).
`COC(=O)C(C)NC(=O)C1OC(OC2C(OC3CCC4(C)C(CCC5(C)C4C(=O)C=C4C6CC(C)(C(=O)O)CCC6(C)CCC45C)C3(C)C)OC(C(=O)NC(C)C(=O)OC)C(O)C2O)C(O)C(O)C1O` (stereo not drawn) gave an EC50 of 45 µM (Epstein-Barr virus; EA/VCA antigen expression, indirect immunofluorescence; superinfected Raji cells; 24 h).
With `CC1(CCCCCCCCCCOCCCOP(=O)(O)CO[C@H](CO)Cn2ccc(N)nc2=O)COC1` the EC50 was 0.01 ± 0.01 µM (human alphaherpesvirus 2; cytopathic effect; HFF, G).

Some of these lines once more:
For `COc1ccc2c(c1)C=C(C(=O)N1C[C@@H](C)O[C@@H](C)C1)Cn1c-2c(C2CCCCC2)c2ccc(C(=O)NS(=O)(=O)N(C)C)cc21`, the EC50 was 0.04 µM (hepatitis C virus; replicon replication; Huh-7, genotype 1b Con1).
`CC1(C(=O)O)CCC2(C)CCC3(C)C(=CC(=O)C4C5(C)CCC(OC6OC(C(=O)NC(CCCCNC(=O)OCc7ccccc7)C(=O)O)C(O)C(O)C6OC6OC(C(=O)NC(CCCCNC(=O)OCc7ccccc7)C(=O)O)C(O)C(O)C6O)C(C)(C)C5CCC43C)C2C1` (stereo not drawn) gave an EC50 of > 1000 µM (Epstein-Barr virus; viral genome copies, quantitative PCR; superinfected Raji cells; 24 h).
`O=C(O)/C=C/c1ccc(NC(=O)C2(NC(=O)c3ccc4c(C5CCCCC5)c5n(c4c3)CC(=O)Nc3ccccc3-5)CCCC2)cc1` gave an EC50 of 0.008 µM (hepatitis C virus; replicon replication; Huh-7, genotype 1b Con1).
